Assay results collected from several papers.
pIC50: −log10 of the molar value.
UniProt Q02779, sequence (whole entry, looked up): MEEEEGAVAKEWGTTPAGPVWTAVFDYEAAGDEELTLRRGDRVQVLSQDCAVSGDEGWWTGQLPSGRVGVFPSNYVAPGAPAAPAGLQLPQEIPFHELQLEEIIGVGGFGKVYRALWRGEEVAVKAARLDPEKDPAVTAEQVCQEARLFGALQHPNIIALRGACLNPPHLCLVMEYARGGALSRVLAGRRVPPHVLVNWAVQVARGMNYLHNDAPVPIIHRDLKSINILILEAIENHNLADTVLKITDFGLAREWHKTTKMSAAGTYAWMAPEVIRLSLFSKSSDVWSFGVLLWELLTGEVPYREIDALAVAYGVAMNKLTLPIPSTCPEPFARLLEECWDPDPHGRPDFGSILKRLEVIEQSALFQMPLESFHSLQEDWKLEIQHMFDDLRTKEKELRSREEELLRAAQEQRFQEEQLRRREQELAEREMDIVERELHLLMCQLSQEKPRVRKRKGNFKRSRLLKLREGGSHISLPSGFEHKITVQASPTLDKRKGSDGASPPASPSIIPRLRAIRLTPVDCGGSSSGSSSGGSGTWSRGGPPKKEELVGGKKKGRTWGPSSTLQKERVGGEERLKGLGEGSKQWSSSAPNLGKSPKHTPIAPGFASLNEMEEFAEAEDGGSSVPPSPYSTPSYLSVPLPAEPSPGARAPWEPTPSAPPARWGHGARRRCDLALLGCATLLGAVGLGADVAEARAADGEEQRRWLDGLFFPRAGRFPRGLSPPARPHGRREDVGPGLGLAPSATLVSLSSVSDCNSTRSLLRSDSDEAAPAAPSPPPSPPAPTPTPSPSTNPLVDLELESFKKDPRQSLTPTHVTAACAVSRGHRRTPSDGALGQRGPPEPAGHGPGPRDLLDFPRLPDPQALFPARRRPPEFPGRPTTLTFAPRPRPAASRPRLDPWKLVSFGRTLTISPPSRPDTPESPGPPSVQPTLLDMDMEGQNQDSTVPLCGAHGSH

COc1cc(C(=O)c2nc(-c3cccc4ncccc34)c[nH]2)cc(OC)c1OC — pIC50 (A-375; cell growth or viability, MTS; 72 h): < 6.00
COc1ccc(-c2cc(C(F)(F)F)c3c(N)c(C(=O)Nc4cccc(C)c4C)sc3n2)cc1 — pIC50 (HepG2; cell growth or viability; 72 h): 4.44
COc1cc(C(=O)c2nc(-c3cccc4[nH]ccc34)cn2C)cc(OC)c1OC — pIC50 (M14; cell growth or viability, MTS; 72 h): 6.33
Cc1sc2c(c1C)C(c1ccc(Cl)cc1)=N[C@@H](CC(=O)OC(C)(C)C)c1nnc(C)n1-2 — pIC50 (SET-2; cell growth or viability, ATP luminescence): 6.03
COc1cc(C(=O)c2nc(-c3cccc4[nH]ccc34)c[nH]2)cc(OC)c1OC — pIC50 (A-375; cell growth or viability, MTS; 72 h): 9.22
Nc1c(C(=O)NCc2ccc(F)cc2)sc2ncccc12 — pIC50 (HepG2; cell growth or viability; 72 h): < 4.00
S=P1(c2ccccc2)CCCCC1 — pIC50 (HCT-116; cell growth or viability, MTT; 72 h): < 4.00
N.N.[Cl][Pt][Cl] — pIC50 (MDA-MB-231; cell growth or viability; 48 h, dark): 4.44
N.N.[Cl][Pt][Cl] — pIC50 (OCI-Ly3; cell growth or viability, ATP luminescence; 72 h): 6.07
COc1ccc(-c2cc(C(F)(F)F)c3cc(C(=O)NC(C)c4ccccc4)sc3n2)cc1 (stereo not drawn) — pIC50 (HepG2; cell growth or viability; 72 h): < 4.00
COc1cc(C(=O)c2nc(-c3cccc4occc34)c[nH]2)cc(OC)c1OC — pIC50 (M14; cell growth or viability, MTS; 72 h): 7.13
N.N.[Cl][Pt][Cl] — pIC50 (HCT-116; cell growth or viability, MTT): 5.18
COc1cc(C(=O)c2nc(-c3c[nH]c4ccccc34)c[nH]2)cc(OC)c1OC — pIC50 (A-375; cell growth or viability, MTS; 72 h): 7.50
COc1ccc(-c2cc(C(F)(F)F)c3c(N)c(C(=O)NCCSC)sc3n2)cc1 — pIC50 (HepG2; cell growth or viability; 72 h): < 4.00
COc1cc(C(=O)c2nc(-c3ccc4ccccc4c3)c[nH]2)cc(OC)c1OC — pIC50 (M14; cell growth or viability, MTS; 72 h): 6.62
N.N.[Cl][Pt][Cl] — pIC50 (A549; cell growth or viability, MTT): 5.12
O=C1[O][Pt]2([NH][C@@H]3CCCC[C@H]3[NH]2)[O]C1=O — pIC50 (PLC-PRF-5; cell growth or viability, imaging; 72 h): 4.90
CC(C)C[C@@H]1NC(=O)CNC(=O)[C@H](CC(N)=O)NC(=O)[C@H](CCCNC(=N)N)NC(=O)[C@H]([C@@H](C)O)NC(=O)[C@@H]2CSSC[C@@H]3NC(=O)[C@H]([C@@H](C)O)NC(=O)CNC(=O)CNC(=O)[C@H](C(C)C)NC(=O)[C@@H]4CSSC[C@H](NC(=O)[C@H]([C@@H](C)O)NC(=O)[C@H](CSSC[C@H](NC(=O)[C@H](C(C)C)NC(=O)[C@@H]5CCCN5C1=O)C(=O)NCC(=O)N[C@@H](CCC(=O)O)C(=O)N[C@@H]([C@@H](C)O)C(=O)N4)NC(=O)CNC(=O)[C@@H]1CCCN1C(=O)[C@H]([C@@H](C)O)NC(=O)[C@H](CC(N)=O)NC3=O)C(=O)N[C@@H](CO)C(=O)N[C@@H](Cc1c[nH]c3ccccc13)C(=O)N1CCC[C@H]1C(=O)N[C@@H](CCCCN)C(=O)N2 — pIC50 (Sf9; cell growth or viability, MTT; 24 h): < 4.49
COc1cc(C(=O)c2nc(-c3c[nH]c4cccc(C)c34)c[nH]2)cc(OC)c1OC — pIC50 (A-375; cell growth or viability, MTS; 72 h): 6.83
COc1ccc(-c2cc(C(F)(F)F)c3c(N)c(C(=O)NCC45CC6CC(CC(C6)C4)C5)sc3n2)cc1 — pIC50 (HepG2; cell growth or viability; 72 h): < 4.00
COc1cc(C(=O)c2nc(-c3ccc4[nH]ccc4c3)c[nH]2)cc(OC)c1OC — pIC50 (A-375; cell growth or viability, MTS; 72 h): 7.44
Nc1c(C(=O)N2CCOCC2)sc2nc(Cl)ccc12 — pIC50 (HepG2; cell growth or viability; 72 h): < 4.00
CS(=O)(=O)OCCN(CCBr)c1c(C(=O)NCCO)cc([N+](=O)[O-])cc1[N+](=O)[O-] — pIC50 (B-ALL; cell growth or viability; 48 h): 4.58
COc1ccc(-c2cc(C(F)(F)F)c3c(N)c(C(=O)Nc4ccccc4)sc3n2)cc1 — pIC50 (HepG2; cell growth or viability; 72 h): < 4.00
[2H]c1c([2H])c([C@]2([2H])CCCN2C(=O)C(C)(C)Oc2ccc3cn[nH]c3c2)c([2H])c([2H])c1C([2H])([2H])[2H] — remaining binding (Mitogen-activated protein kinase kinase kinase 10 (MAP3K10, Homo sapiens, UniProt Q02779); binding, competition with immobilised ligand; 1 µM): 67%
COc1ccc(-c2ccc3c(N)c(C(=O)Nc4cccc(C)c4C)sc3n2)cc1 — pIC50 (HepG2; cell growth or viability; 72 h): < 4.00
O=C1CCP(=S)(c2ccccc2)CC1 — pIC50 (HCT-116; cell growth or viability, MTT; 72 h): 5.36

Some of these lines once more:
COc1ccc(-c2cc(C(F)(F)F)c3c(N)c(C(=O)NCC45CC6CC(CC(C6)C4)C5)sc3n2)cc1 — pIC50 (HepG2; cell growth or viability; 72 h): < 4.00
COc1ccc(-c2cc(C(F)(F)F)c3cc(C(=O)NC(C)c4ccccc4)sc3n2)cc1 (stereo not drawn) — pIC50 (HepG2; cell growth or viability; 72 h): < 4.00
COc1cc(C(=O)c2nc(-c3cccc4[nH]ccc34)cn2C)cc(OC)c1OC — pIC50 (M14; cell growth or viability, MTS; 72 h): 6.33
COc1ccc(-c2cc(C(F)(F)F)c3c(N)c(C(=O)Nc4cccc(C)c4C)sc3n2)cc1 — pIC50 (HepG2; cell growth or viability; 72 h): 4.44
